Measured values collected from several papers.
Lines come from different studies, so protocols differ. Numbers after ± are the reported error.
F2: Prothrombin (F2, Bos taurus, UniProt P00735)
PTPN1: Tyrosine-protein phosphatase non-receptor type 1 (PTPN1, Homo sapiens, UniProt P18031)

Sequences of proteins named here, by UniProt entry; tags and fusion partners are left off. Residues count along the entry.
UniProt P40261, whole entry: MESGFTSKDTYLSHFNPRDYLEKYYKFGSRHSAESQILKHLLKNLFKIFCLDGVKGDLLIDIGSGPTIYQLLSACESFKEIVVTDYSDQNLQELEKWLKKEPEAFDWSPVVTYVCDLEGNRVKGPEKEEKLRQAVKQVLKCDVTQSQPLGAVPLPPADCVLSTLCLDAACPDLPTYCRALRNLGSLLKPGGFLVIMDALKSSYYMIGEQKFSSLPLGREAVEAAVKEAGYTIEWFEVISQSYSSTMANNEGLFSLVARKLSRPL
UniProt Q01813, whole entry: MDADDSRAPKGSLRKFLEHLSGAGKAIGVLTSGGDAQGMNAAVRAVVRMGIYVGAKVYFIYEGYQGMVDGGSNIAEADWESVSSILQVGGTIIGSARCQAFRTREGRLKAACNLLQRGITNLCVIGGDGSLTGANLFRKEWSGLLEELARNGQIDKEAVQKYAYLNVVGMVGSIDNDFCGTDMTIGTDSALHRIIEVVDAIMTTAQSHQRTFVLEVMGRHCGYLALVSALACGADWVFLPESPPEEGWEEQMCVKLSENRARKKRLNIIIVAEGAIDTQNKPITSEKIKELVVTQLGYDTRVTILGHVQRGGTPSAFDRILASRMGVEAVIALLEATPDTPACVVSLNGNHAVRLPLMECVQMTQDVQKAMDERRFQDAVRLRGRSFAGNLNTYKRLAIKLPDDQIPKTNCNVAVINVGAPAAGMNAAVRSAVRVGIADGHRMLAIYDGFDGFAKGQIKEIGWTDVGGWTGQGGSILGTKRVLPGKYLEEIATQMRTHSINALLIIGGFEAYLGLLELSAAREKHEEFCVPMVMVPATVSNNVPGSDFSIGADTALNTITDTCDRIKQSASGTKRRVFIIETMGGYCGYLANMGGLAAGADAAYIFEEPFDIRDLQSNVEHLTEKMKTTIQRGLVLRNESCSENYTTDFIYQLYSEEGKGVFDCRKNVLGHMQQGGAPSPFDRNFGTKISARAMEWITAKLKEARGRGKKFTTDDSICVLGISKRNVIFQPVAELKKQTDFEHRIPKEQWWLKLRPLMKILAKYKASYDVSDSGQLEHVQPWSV
UniProt P50897, 28-306 limits assumed: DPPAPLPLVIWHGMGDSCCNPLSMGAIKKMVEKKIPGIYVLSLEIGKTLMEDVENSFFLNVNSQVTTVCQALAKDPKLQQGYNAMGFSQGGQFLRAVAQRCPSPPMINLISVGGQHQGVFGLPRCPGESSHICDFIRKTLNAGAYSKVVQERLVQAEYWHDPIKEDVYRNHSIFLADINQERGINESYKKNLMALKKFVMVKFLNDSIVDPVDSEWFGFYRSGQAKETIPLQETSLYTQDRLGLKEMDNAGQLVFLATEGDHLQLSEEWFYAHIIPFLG
UniProt O60285, whole entry: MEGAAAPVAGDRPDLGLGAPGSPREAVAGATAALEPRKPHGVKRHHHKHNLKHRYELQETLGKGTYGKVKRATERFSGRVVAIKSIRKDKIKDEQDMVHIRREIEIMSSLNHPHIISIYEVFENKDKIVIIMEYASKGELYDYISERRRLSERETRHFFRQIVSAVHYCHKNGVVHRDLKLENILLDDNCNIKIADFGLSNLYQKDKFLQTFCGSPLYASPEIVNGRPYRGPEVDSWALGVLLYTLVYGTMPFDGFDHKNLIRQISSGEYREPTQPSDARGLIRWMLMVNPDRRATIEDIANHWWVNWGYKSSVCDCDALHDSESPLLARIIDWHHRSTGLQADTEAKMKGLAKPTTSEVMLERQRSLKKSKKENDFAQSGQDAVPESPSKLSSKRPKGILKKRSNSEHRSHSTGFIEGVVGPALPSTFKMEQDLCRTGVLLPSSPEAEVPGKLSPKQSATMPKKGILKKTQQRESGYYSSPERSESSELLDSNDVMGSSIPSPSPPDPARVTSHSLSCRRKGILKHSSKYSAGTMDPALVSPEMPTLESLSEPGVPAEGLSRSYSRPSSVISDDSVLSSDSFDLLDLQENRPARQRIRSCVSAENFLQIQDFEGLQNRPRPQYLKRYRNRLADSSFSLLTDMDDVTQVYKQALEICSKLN
UniProt P22413, whole entry: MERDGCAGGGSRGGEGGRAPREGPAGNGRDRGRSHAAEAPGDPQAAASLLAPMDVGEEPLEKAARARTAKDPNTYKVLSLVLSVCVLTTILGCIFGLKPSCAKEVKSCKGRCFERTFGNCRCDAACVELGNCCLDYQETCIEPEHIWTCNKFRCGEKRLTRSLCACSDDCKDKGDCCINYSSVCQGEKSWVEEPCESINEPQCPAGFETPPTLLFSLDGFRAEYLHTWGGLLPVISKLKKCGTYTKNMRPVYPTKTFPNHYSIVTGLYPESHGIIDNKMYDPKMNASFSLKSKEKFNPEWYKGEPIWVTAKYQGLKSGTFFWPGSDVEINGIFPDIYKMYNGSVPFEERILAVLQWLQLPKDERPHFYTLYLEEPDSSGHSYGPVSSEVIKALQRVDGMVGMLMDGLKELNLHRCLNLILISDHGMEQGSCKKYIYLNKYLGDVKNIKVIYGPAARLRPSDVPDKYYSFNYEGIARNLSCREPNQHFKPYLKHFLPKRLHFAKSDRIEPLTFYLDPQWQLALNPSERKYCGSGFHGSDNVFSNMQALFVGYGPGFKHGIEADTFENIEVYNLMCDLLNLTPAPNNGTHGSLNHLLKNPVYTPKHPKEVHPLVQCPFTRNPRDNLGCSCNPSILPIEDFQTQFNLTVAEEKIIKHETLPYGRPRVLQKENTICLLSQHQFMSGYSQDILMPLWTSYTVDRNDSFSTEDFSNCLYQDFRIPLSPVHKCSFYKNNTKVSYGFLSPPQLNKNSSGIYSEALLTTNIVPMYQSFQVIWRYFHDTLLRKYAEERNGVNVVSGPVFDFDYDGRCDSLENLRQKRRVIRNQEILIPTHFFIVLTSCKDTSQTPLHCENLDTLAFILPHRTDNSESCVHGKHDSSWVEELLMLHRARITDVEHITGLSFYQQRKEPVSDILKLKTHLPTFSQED
UniProt Q13304, whole entry: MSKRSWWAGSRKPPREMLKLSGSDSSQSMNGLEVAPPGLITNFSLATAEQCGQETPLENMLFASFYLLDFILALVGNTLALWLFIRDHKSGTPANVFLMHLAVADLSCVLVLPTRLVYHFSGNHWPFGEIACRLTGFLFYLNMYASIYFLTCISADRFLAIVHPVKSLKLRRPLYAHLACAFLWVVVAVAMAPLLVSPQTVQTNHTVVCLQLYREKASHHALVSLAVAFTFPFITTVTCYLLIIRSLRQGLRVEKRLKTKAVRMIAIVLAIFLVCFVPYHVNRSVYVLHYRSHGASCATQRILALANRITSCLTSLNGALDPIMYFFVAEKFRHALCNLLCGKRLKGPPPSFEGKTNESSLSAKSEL
UniProt P13569, whole entry: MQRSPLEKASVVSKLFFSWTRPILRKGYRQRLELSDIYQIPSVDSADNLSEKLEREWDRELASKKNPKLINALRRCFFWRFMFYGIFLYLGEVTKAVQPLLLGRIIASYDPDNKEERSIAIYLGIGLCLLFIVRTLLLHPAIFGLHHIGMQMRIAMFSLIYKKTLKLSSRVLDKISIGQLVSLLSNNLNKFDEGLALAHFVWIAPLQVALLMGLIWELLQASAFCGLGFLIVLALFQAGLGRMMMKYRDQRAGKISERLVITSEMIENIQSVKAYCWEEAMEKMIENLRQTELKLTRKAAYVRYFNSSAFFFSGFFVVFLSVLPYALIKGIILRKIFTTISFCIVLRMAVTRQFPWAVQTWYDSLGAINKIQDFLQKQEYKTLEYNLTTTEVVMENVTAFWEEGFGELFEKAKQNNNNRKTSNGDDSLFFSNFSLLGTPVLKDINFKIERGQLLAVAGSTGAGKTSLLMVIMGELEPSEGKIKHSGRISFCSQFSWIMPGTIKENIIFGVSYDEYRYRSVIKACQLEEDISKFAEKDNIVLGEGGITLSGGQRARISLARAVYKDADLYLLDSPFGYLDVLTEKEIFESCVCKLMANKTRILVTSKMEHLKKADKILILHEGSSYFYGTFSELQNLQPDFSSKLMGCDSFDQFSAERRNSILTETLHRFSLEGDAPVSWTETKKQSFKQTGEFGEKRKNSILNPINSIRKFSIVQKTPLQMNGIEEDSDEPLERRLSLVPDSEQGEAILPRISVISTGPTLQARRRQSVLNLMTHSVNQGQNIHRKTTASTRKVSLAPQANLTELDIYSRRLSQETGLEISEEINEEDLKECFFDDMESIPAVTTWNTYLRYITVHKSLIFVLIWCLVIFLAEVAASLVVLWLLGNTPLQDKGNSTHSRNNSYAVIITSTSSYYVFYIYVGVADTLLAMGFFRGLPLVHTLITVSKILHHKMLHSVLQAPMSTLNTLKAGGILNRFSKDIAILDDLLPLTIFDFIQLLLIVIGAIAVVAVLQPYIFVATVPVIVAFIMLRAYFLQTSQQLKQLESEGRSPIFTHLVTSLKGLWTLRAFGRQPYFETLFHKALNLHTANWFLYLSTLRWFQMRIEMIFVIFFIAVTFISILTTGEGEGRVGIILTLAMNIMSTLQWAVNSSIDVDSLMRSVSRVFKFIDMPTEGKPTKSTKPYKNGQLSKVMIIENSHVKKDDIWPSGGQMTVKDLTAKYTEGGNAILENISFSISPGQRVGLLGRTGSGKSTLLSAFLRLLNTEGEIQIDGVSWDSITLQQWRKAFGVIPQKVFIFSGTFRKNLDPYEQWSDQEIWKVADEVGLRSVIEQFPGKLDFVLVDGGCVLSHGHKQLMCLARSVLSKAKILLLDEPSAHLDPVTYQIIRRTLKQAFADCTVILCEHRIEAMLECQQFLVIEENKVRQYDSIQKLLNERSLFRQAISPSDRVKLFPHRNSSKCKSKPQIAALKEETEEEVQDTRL
UniProt P27707, whole entry: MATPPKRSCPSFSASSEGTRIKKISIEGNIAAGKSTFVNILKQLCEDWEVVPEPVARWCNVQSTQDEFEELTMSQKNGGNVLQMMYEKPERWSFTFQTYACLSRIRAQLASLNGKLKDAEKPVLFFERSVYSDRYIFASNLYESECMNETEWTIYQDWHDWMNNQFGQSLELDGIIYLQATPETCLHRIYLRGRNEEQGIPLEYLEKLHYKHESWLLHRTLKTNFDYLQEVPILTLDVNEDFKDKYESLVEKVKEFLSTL
UniProt P00761, 9-231 limits assumed: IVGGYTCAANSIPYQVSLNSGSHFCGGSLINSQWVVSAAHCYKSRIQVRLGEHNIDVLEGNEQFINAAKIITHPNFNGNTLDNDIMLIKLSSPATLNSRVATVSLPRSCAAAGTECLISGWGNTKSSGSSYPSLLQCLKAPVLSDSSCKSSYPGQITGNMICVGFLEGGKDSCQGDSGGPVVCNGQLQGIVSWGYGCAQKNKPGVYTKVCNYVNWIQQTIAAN
UniProt P16083, whole entry: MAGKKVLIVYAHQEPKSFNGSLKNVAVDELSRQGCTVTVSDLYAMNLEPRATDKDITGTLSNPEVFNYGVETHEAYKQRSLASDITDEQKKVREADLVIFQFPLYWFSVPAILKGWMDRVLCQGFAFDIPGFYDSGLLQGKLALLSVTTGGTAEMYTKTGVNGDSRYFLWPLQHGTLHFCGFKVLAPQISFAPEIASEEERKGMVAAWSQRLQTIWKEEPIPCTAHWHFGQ
UniProt Q9NWZ3, whole entry: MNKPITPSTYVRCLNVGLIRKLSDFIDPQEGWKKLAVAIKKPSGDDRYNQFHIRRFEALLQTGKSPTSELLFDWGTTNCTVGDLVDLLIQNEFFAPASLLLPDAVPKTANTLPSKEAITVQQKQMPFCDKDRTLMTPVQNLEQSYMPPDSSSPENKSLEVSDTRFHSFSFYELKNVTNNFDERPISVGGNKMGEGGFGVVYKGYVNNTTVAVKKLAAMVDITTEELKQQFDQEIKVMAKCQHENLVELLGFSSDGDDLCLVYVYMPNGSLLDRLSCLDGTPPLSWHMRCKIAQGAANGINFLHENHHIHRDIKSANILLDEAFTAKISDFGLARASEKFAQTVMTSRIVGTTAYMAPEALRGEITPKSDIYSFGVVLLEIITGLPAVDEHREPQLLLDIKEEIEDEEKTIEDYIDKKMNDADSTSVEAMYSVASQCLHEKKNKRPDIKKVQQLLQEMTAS
UniProt Q13131, whole entry: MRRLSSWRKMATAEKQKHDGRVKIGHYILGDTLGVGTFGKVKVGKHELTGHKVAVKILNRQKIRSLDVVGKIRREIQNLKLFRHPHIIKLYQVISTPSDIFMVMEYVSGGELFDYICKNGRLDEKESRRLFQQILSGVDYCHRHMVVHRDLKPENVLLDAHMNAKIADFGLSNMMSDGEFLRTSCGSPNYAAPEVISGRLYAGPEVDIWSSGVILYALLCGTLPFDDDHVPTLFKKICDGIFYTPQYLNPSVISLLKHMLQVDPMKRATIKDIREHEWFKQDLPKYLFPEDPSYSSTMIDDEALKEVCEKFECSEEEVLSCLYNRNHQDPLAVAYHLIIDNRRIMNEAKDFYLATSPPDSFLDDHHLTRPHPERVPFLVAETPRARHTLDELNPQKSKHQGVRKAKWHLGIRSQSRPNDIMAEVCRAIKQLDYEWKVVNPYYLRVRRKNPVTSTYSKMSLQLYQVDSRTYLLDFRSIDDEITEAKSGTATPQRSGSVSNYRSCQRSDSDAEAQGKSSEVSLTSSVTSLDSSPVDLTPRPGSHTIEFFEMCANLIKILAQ

| SMILES | target | test | test system | conditions | IC50 |
| --- | --- | --- | --- | --- | --- |
| O=[N+]([O-])c1ccc(C2Nc3c(cccc3C(F)(F)F)C3C=CCC32)cc1 (stereo not drawn) | F2 | enzyme activity | – | 30 min preincubation, added: pyroGlu-Pro-Arg-pNA | > 20000 nM |
| C[n+]1cccc2c(N)cccc21 | NNMT (Homo sapiens, UniProt P40261) | enzyme activity, inhibitor | – | – | < 10 nM |
| O=C(Nc1ccc(Cl)c(Cl)c1)Nc1nnc(-c2ccc(Br)cc2)s1 | F2 | enzyme activity | – | 30 min preincubation, added: pyroGlu-Pro-Arg-pNA | > 20000 nM |
| O=C(Oc1c(F)c(F)c(F)c(F)c1F)C(c1ccccc1)c1ccccc1 | PFKP (Homo sapiens, UniProt Q01813) | probe labelling, inhibitor, gel-based ABPP | – | – | 2000 nM |
| Cc1cccc(NC(=O)c2nn(Cc3cnc[nH]3)c3c2CN(C(=O)c2ccc[nH]2)CC3)c1 | IDH1 (Homo sapiens, UniProt O75874, R132C) | 2-HG production, inhibitor, LC-MS/MS | HT-1080 | – | > 36000 nM |
| O=C(ON1C(=O)C2CN(C(=O)N3CCOCC3)CCN2C1=O)N1CCC(CCc2ccc(Cl)cc2)CC1 (stereo not drawn) | Palmitoyl-protein thioesterase 1 (Homo sapiens, UniProt P50897) | competitive ABPP | HEK293T transfected with PPT1 | – | 500 nM |
| COc1cc(N2CCN(C)CC2)ccc1Nc1ncc2c(n1)N(C)c1ccccc1C(=O)N2 | PTK6 (Homo sapiens, UniProt Q13882) | kinase activity, inhibitor | – | off-target | 47 nM |
| Cc1cc(C)c2nc3s/c(=C\c4ccc(-c5ccccc5C(=O)O)o4)c(=O)n3c2c1 | PTPN1 | phosphatase activity, inhibitor | – | added: OMFP | 28000 nM |
| Cc1nn(-c2ccnc(Nc3ccc(-c4csc5c(=O)cc(N6CCOCC6)oc45)cc3)n2)cc1CN1CC(O)C1 | SYK (Homo sapiens, UniProt P43405) | enzyme activity, inhibitor | – | – | 20 nM |
| Cc1sc2c(c1C)C(c1ccc(Cl)cc1)=N[C@@H](CC(=O)OC(C)(C)C)c1nnc(C)n1-2 | LRRK2 (Homo sapiens, UniProt Q5S007) | kinase activity, Adapta | – | – | > 10000 nM |
| COc1cccc(CNC(=O)Nc2ccc(-c3cn[nH]c3)cc2)c1 | LIM domain kinase 1 (LIMK1, Homo sapiens, UniProt P53667) | enzyme activity, inhibitor | – | – | > 10000 nM |
| COc1cc(-c2nc3ccc(C(=O)NCCCN4CCN(C)C(c5ccccc5)C4)cc3n2C2CCC2)cc(OC)c1OC (stereo not drawn) | ACVR1 (Homo sapiens, UniProt Q04771) | target engagement, NanoBRET | HEK293 | – | 2720 nM |
| O=c1/c(=C/c2ccc(-c3cc(Cl)cc(Cl)c3)o2)sc2nc3cc(Br)cnc3n12 | PTPN1 | phosphatase activity, inhibitor | – | added: OMFP | > 100000 nM |
| COc1cc(N2CCN(C)CC2)ccc1Nc1ncc2c(n1)N(C)c1ccccc1C(=O)N2C(C)C | TNK2 (Homo sapiens, UniProt Q07912) | binding, inhibitor, LanthaScreen binding | – | – | 8800 nM |
| O=C(CC[C@H](Cc1ccc(C(=O)O)cc1)C(=O)O)NO | Glutamate carboxypeptidase 2, extracellular domain (FOLH1, Homo sapiens, UniProt Q04609) | probe binding, inhibitor, fluorescence polarization competition | – | 25 min preincubation, 40 nM enzyme, added: fluorescent urea probe 20 nM | 19.2 nM |
| CN1C(=O)c2ccccc2N(C)c2nc(Nc3ccc(N4CCC(O)CC4)cc3)ncc21 | NUAK1 (Homo sapiens, UniProt O60285) | kinase activity | – | – | < 100 nM |
| Cc1nc2ncnn2c(N(C)C)c1Cc1cccc(N)c1 | ENPP1 (Homo sapiens, UniProt P22413) | cGAMP hydrolysis, inhibitor, Lumit immunoassay | – | added: cGAMP | 108 nM |
| O=C(Nc1ccc(Cl)cc1)C(NS(=O)(=O)c1cccs1)c1ccccc1 (single isomer, unassigned) | Uracil nucleotide/cysteinyl leukotriene receptor, long isoform (GPR17, Homo sapiens, UniProt Q13304) | calcium mobilization, antagonist | 1321-N1 | – | 4360 ± 360 nM |

| SMILES | target | test | test system | conditions | IC50 |
| --- | --- | --- | --- | --- | --- |
| FC(F)(F)Oc1ccc2nc(-c3ccccn3)[nH]c2c1 | Core-binding factor subunit beta, with RUNX1 Runt domain (Homo sapiens, UniProt Q13951) | CBFβ-Runt domain binding, inhibitor, FRET | – | – | 3200 ± 500 nM |
| O=C(O)c1ccc(/C=C2\SC(=S)N(c3cccc(C(F)(F)F)c3)C2=O)cc1 | CFTR (Homo sapiens, UniProt P13569) | iodide influx, inhibitor, microfluidic YFP fluorescence | FRT cells expressing CFTR | 10 min, added: 5 µM forskolin, 140 mM iodide | 650 nM |
| O=C1C=C(NCCc2cc(Br)c(O)c(Br)c2)C(=O)c2ncccc21 | Radixin (Homo sapiens, UniProt P35241) | phosphorylation, inhibitor, in vitro kinase | – | – | 35300 nM |
| COc1ccc(-c2nc([C@H](C)Sc3nc(N)cc(N)n3)c(C)s2)cc1OCCN1CCOCC1 | DCK (Homo sapiens, UniProt P27707) | deoxycytidine uptake, inhibitor, [3H]-deoxycytidine uptake | CEM | 1 h, 37 °C | 468 ± 2.1 nM |
| CN(C)S(=O)(=O)c1cccc(-n2sc3ccccc3c2=O)c1 | Phosphoethanolamine/phosphocholine phosphatase (Homo sapiens, UniProt Q8TCT1) | enzyme activity, inhibitor, phosphate release | – | 60 min, pH 6.7, added: phosphoethanolamine 62.5 µM | 140 ± 30 nM |
| CCc1ccc(C(=O)NCCCCC(NC(=O)C(Cc2ccc(C(F)(F)P(=O)(O)O)cc2)NC(C)=O)C(N)=O)cc1 (stereo not drawn) | PTPN9 (Homo sapiens, UniProt P43378) | enzyme activity, inhibitor | – | pH 7.0, 25 °C, added: pNPP 6 mM | 9000 nM |
| CC(C)C[C@@H](NC(=O)[C@H](O)Cc1ccccc1)C(=O)N1[C@H](C(=O)NCCC2=CCN(C(=N)N)C2)C[C@@H]2CC[C@@H](O[C@H]3OC[C@@H](O)[C@H](O)[C@H]3O)C[C@@H]21 | Trypsin (Sus scrofa, UniProt P00761) | enzyme activity, inhibitor | – | – | 67 µg/mL |
| CCN1CCN(Cc2ccc(NC(=O)c3ccc(C)c(Oc4ncnc5cc(OC)c(OC)cc45)c3)cc2C(F)(F)F)CC1 | FLT3 (Homo sapiens, UniProt P36888) | enzyme activity, Z'-LYTE | – | added: ATP at Km | 633 nM |
| CCCCCC/C=C\CC(=O)N[C@@H](Cc1ccccc1)[C@@H](O)CC(=O)N[C@H](C(=O)N[C@@H](CO)[C@@H](O)CC(=O)N[C@H](C(=O)N[C@@H]1C=CC(=O)N[C@@H](C(C)C)C(=O)N(C)[C@@H](Cc2ccc(O)cc2)C(=O)OC1)C(C)C)C(C)C | CAPN1 (Homo sapiens, UniProt P07384) | enzyme activity, inhibitor, fluorescence | – | 1 h, 37 °C | 29 ± 2 nM |
| c1ccc2[nH]c3c(N=NC4=NCCN4)c4ccccc4c-3nc2c1 | NQO2 (Homo sapiens, UniProt P16083) | enzyme activity, inhibitor | – | added: 200 µM NRH, DCPIP, 2 µM BSA | 180 ± 50 nM |
| O=C(Nc1ccc(-c2nc3ccccc3o2)c(O)c1)c1ccc(-c2cccc([N+](=O)[O-])c2)o1 | F2 | enzyme activity | – | 30 min preincubation, added: pyroGlu-Pro-Arg-pNA | > 20000 nM |
| O=c1/c(=C/c2ccccc2Cl)sc2nc3cc(Br)cnc3n12 | PTPRR (Homo sapiens, UniProt Q15256) | phosphatase activity, inhibitor | – | added: OMFP | > 100000 nM |
| COc1cc2ncc(-c3cccc(NC4CCNC4)n3)n2cc1-c1cn[nH]c1 (stereo not drawn) | IRAK4 (Homo sapiens, UniProt Q9NWZ3) | kinase activity, inhibitor | – | – | < 0.5 nM |
| Cc1cccc(C2Nc3cccc4cccc(c34)N2)c1 | F2 | enzyme activity | – | 30 min preincubation, added: pyroGlu-Pro-Arg-pNA | > 20000 nM |
| O=c1/c(=C/c2ccc(-c3ccccc3[N+](=O)[O-])o2)sc2nc3cc(Br)cnc3n12 | DUSP3 (Homo sapiens, UniProt P51452) | phosphatase activity, inhibitor | – | added: OMFP | 12000 nM |
| CN1C/C(=C\c2ccccn2)C(=O)[C@@H](Cc2ccccn2)C1 | 5'-AMP-activated protein kinase catalytic subunit alpha-1, with beta1 gamma1 subunits (PRKAA1, Homo sapiens, UniProt Q13131) | enzyme activity, inhibitor, Z'-LYTE | – | AMPK A1/B1/G1 complex | 10000 nM |
| CCNC(=O)[C@H](CCP(=O)(O)C[C@@H](CCC(=O)O)C(=O)O)NC(C)=O | Cytosolic carboxypeptidase-like protein 5, residues 2–605 (AGBL5, Homo sapiens, UniProt Q8NDL9) | enzyme activity, inhibitor, LC-MS | – | 15 min preincubation, pH 7.4, room temperature, added: 10 µM peptide substrate | 15600 nM |
| CCCCCCCCCCCCCC=C[C@@H](O)[C@H](CO[C@@H]1O[C@H](CO)[C@@H](O[C@@H]2O[C@H](CO)[C@H](O)[C@H](O[C@]3(C(=O)O)C[C@H](O)[C@@H](NC(C)=O)[C@H]([C@H](O)[C@@H](CO)O[C@]4(C(=O)O)C[C@H](O)[C@@H](NC(C)=O)[C@H]([C@H](O)[C@H](O)CO)O4)O3)[C@H]2O)[C@H](O)[C@H]1O)NC(=O)CCCCCCCCCCCCCCCCC | Cd1d1 (Mus musculus, UniProt P11609) | binding | – | – | 95 nM |

Excerpt of the above:
| SMILES | target | test | test system | conditions | IC50 |
| --- | --- | --- | --- | --- | --- |
| O=c1/c(=C/c2ccccc2Cl)sc2nc3cc(Br)cnc3n12 | PTPRR (Homo sapiens, UniProt Q15256) | phosphatase activity, inhibitor | – | added: OMFP | > 100000 nM |
| Cc1nn(-c2ccnc(Nc3ccc(-c4csc5c(=O)cc(N6CCOCC6)oc45)cc3)n2)cc1CN1CC(O)C1 | SYK (Homo sapiens, UniProt P43405) | enzyme activity, inhibitor | – | – | 20 nM |
